Measured values collected from several papers.
Protocols differ between the studies behind these lines. ± gives the spread as reported.
UCHL1: Ubiquitin carboxyl-terminal hydrolase isozyme L1 (UCHL1, Homo sapiens, UniProt P09936)
Sequence of UniProt P09936 (whole entry, looked up): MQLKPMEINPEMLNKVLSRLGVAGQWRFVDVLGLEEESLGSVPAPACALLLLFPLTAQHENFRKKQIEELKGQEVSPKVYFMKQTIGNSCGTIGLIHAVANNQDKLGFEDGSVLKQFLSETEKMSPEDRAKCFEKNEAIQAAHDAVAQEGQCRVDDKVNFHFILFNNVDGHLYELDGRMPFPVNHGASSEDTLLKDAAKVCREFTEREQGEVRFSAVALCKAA

`Cc1nc(-c2cnc(NC(C)C)n(C)c2=O)ccc1Oc1ccnc(-c2cnn(C)c2)c1` gave a Cmax of 3310 ng/mL (Beagle dog, male, plasma; oral, 10 mg/kg, crossover study, mean).
The Cmax of `Cn1c(C(F)(F)F)cc(=O)n(-c2cc(Oc3cccnc3OCC(=O)O)c(Cl)cc2F)c1=O` is reported as 13600 ng/mL (beagle dog, male, plasma; oral capsule, 1000 mg/kg/day epyrifenacil, day 1, 90-day study).
`O=C(NC[C@H]1CN(c2ccc(N3CCOCC3=O)cc2)C(=O)O1)c1ccc(Cl)s1` gave a Cmax of 161 ± 58 ng/mL (healthy mixed-breed dogs, plasma; oral, 0.5 mg/kg every 12 h for 7 days).
The Cmax reduction of `C=CC(=O)NC1CCN(c2ncc3ncnc(Nc4ccc(Oc5ccc6c(c5)ncn6C)c(C)c4)c3n2)CC1` is reported as roughly 94% (male beagle dog, plasma; oral, 3 mg/kg, high vs low gastric pH, together with: pentagastrin or famotidine pretreatment).
`O=C(O)CC[C@H](NC(=O)N[C@@H](CCCCNC(=O)[C@H](Cc1ccc2ccccc2c1)NC(=O)CCCCCNC(=O)CN1CCN(CC(=O)O)CCN(CC(=O)O)CCN(CC(=O)O)CC1)C(=O)O)C(=O)O` [gallium-68 labelled] gave a tissue uptake of 6.87 ± 1.57 %ID/g (gamma counting; mouse, 22Rv1 xenograft, blood; intravenous, 3.7 MBq, 2 h).
`COc1cc2c3c(n(CCCN4CCOCC4)c(=O)c2cc1OC)-c1cc2c(cc1C3=O)OCO2` gave a Cmax of 333 ± 43 ng/mL (beagle dog, male, plasma; intravenous infusion, 50 mg/m^2, 1 h infusion, vehicle 1).
`CCc1ccc(NC(=O)C(C#N)=Cc2cccnc2)cc1` has a labelling of 32.4% (UCHL1; covalent, intact protein LC-MS; 12.5 µM).
The Cmax of `N#C[C@@]1(c2ccc3c(N)ncnn23)O[C@H](CO)[C@@H](O)[C@H]1O` is reported as 17.4 µM (dog, plasma; oral, 5 mg/kg, solution, recalculated NCATS data).
For `COc1ccc(-n2nc(C(N)=O)c3c2C(=O)N(c2ccc(N4CCCCC4=O)cc2)CC3)cc1`, the Cmax was 822 ng/mL (healthy mixed-breed dogs; oral, 0.5 mg/kg every 12 h, 7 days).
`COc1ccc(C[C@@H](C)[C@@H](C)Cc2ccc(OC)c(OC)c2)cc1OC` gave a Cmax of 1590 ± 285 ng/mL (beagle dog female, plasma; oral, 1000 mg/kg/day, day 28).
With `O=C(CCl)N1N=C(c2ccccc2)CC1c1ccccc1` (centres unmarked) the labelling was 20.5% (UCHL1; covalent, intact protein LC-MS; 12.5 µM).
